Results from different studies.
Numbers after ± are the reported error.

Structure (SMILES) | cell line | assay | conditions | IC50
Cc1c(-c2c3c(N)n[nH]c(=O)c3nn2-c2ccc(NC(=O)/C=C/CN(C)C)cc2)oc2ccc(Br)cc12 | SNU-16 | cell growth or viability | – | 0.0082 µM
CCCCCCCCCCCCCCCCCC(=O)N[C@@H](CCCN)C(=O)N[C@@H](CCCN)C(=O)N[C@@H](CCCN)C(=O)N[C@@H](CCCN)C(=O)N[C@@H](CCCN)C(N)=O | HCEC | cytotoxicity | – | 18.7 µg/mL
Cn1cc(-c2cc(N3CCCCS3(=O)=O)ccc2N[C@H]2CC[C@H](C)CC2)c2cc[nH]c2c1=O (stereo in doubt) | Light2 cells transfected with GLI1 | GLI-luciferase reporter, inhibitor, measured: GLI1 | – | 0.0003 µM
[Cl][Pt-]1([Cl])[S]C(Nc2ccccc2)=N[N+]1=Cc1ccc(-c2ccccc2)s1 | CEM human lymphocytes | cell proliferation | – | 53 µM
C=CC(OC(C)=O)c1cc(OC)c(OC(C)=O)c(OC)c1 (stereo not drawn) | RT-112 | MTT | 24 h | > 50 µM
O=C(Cc1ccc2ccccc2c1)N[C@H](Cc1ccccc1)C(=O)N[C@H](Cc1ccc(O)cc1)C(=O)N[C@H](Cc1ccccc1)C(=O)N[C@H](Cc1ccc(OP(=O)(O)O)cc1)C(=O)O | A2780cis | cell growth or viability, MTT | – | 212 µg/mL
O=C(Nc1cc(C(F)F)ns1)Nc1cc(F)ncc1CO | SW13 (BRG1/BRM-deficient) | cell viability | – | > 10 µM
COc1ccc(/C=C/C2=[N+]3C(=C(CO)c4c(C)cc(/C=C/c5ccc(OC)cc5)n4[B-]3(C)C)C(C)=C2)cc1 | RPE-1 | phototoxicity, resazurin | added: 645 nm light, 9.00 J/cm2 | 1.4 ± 0.6 µM
[Cl][Pt-]1([Cl])[S]C(Nc2ccccc2)=N[N+]1=Cc1cccs1 | CRFK | cell growth or viability | – | 6.7 µM
C=C1C(=O)[C@@]23CC[C@@H]4C(C)(C)CCC[C@@]4(CO)[C@@H]2[C@@H](O)C[C@@H]1C3 | 786-0 | cell growth or viability, MTT | – | > 20 µM
[Fe+2].c1ccc(N=P(c2ccccc2)(c2ccccc2)[c-]2cccc2)cc1.c1ccc(N=P(c2ccccc2)(c2ccccc2)[c-]2cccc2)cc1 | A2780cisR (cisplatin-resistant) | cell growth, MTT | 74 h, 1% DMSO | 32.7 ± 6 µM
[Cl][Au].[Se]=c1n(C23CC4CC(CC(C4)C2)C3)ccn1C12CC3CC(CC(C3)C1)C2 | LoVo MDR | MTT | 72 h | 4.4 ± 0.9 µM
CC(C)Cc1ccc(C(C)C(=O)[O][Pt]([NH2])([NH2])([Cl])([Cl])[O]C(=O)C(Cl)Cl)cc1 (stereo not drawn) | C13 cisplatin-resistant | cytotoxicity, MTT | 72 h | 0.97 ± 0.22 µM
COc1ccc(-c2cc(=O)c3c(O)cc(O[C@@H]4O[C@H](CO)[C@@H](O)[C@H](O)[C@H]4O)cc3o2)cc1OC | AML12 | cell growth or viability, resazurin | 72 h | > 100 µM
CC1=C2[O][Ru-]([Cl])[O+]=C2C=CN1CCCN1C=CC2=[O+][Ru-]([Cl])[O]C2=C1C.Cc1ccc(C(C)C)cc1.Cc1ccc(C(C)C)cc1 | SISO-oxo oxoplatin-resistant | crystal violet | 96 h | 32.2 µM
[Cl][Au-][c]1n(-c2c(C(c3ccccc3)c3ccccc3)cc(C(c3ccccc3)c3ccccc3)cc2C(c2ccccc2)c2ccccc2)c2c([n+]1-c1c(C(c3ccccc3)c3ccccc3)cc(C(c3ccccc3)c3ccccc3)cc1C(c1ccccc1)c1ccccc1)-c1cccc3cccc-2c13 | C13 cisplatin-resistant | cell viability, MTT | 72 h | > 50 µM
Cc1c(C)c(C)[c-](C)c1C.Cc1ccc(-c2[c-]cccc2)nc1.[Cl-].[Ir+3] | A2780 cells | cell growth, SRB | 24 h exposure, 72 h recovery | 1.26 ± 0.01 µM
O=C1C(Cl)=C(Cl)C(=O)c2c(O)ccc(O)c21 | MOLT-3 | cell growth or viability, XTT | 48 h | 0.27 µM
C[C@@H]1NC(=O)[C@@H](CCC(=O)O)NC(=O)[C@H](Cc2ccccc2)NC(=O)[C@H](CCC(=O)O)NC(=O)[C@H](CC(N)=O)NC1=O | WM-115 | WM-115 cell adhesion, inhibitor | 1 h, added: immobilized CagL RGA mutant | 30 to 530 µM
CC(=O)[O-].O.[Cu+2].[O-]c1ccc(Br)cc1C=NCCN1CCOCC1 | NHDF normal fibroblasts | cell viability, MTT | 72 h | 58.4 µg/mL
O=C(NCC1(c2nc(-c3ccccc3)cs2)CCOCC1)c1cccc(-c2noc(C(F)(F)F)n2)c1 | DHL6 | cell proliferation, CCK-8 | 120 h | > 10 µM

A few entries again:
Structure (SMILES) | cell line | assay | conditions | IC50
[Fe+2].c1ccc(N=P(c2ccccc2)(c2ccccc2)[c-]2cccc2)cc1.c1ccc(N=P(c2ccccc2)(c2ccccc2)[c-]2cccc2)cc1 | A2780cisR (cisplatin-resistant) | cell growth, MTT | 74 h, 1% DMSO | 32.7 ± 6 µM
Cc1c(C)c(C)[c-](C)c1C.Cc1ccc(-c2[c-]cccc2)nc1.[Cl-].[Ir+3] | A2780 cells | cell growth, SRB | 24 h exposure, 72 h recovery | 1.26 ± 0.01 µM
